Measured values of several laboratories.
Lines come from different studies, so protocols differ. Values joined by “and” are separate records of one study, mostly repeats; a detail may differ. ± gives the spread as reported.
Sequence of UniProt P06221 (whole entry, looked up): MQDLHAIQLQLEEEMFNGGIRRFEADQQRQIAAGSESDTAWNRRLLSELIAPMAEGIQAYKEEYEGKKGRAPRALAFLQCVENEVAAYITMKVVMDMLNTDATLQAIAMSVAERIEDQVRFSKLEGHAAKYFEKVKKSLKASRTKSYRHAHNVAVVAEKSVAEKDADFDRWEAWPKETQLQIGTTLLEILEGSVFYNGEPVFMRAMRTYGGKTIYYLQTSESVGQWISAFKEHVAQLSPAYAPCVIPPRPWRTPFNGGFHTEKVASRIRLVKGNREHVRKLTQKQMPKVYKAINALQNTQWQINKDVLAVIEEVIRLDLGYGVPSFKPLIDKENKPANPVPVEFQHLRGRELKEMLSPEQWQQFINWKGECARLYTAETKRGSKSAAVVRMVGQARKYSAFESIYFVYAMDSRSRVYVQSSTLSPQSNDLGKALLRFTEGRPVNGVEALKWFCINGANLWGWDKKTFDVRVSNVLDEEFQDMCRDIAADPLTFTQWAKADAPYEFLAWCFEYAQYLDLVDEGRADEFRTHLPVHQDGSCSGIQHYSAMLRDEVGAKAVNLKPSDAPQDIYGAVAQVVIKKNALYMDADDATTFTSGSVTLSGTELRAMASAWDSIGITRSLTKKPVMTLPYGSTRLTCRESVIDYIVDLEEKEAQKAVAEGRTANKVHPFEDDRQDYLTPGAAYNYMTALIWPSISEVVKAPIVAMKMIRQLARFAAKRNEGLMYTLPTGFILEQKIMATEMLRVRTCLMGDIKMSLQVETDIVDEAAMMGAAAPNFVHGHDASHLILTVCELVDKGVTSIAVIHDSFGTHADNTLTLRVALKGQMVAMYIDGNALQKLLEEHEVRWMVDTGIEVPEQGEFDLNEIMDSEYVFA
Sequence of UniProt P02754 (whole entry, unmodified, looked up): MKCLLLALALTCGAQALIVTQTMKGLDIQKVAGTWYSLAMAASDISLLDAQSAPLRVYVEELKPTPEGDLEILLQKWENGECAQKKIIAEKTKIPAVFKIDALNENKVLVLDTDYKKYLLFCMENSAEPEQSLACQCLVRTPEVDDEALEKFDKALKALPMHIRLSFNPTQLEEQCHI
Sequence of UniProt P10275 (whole entry, looked up): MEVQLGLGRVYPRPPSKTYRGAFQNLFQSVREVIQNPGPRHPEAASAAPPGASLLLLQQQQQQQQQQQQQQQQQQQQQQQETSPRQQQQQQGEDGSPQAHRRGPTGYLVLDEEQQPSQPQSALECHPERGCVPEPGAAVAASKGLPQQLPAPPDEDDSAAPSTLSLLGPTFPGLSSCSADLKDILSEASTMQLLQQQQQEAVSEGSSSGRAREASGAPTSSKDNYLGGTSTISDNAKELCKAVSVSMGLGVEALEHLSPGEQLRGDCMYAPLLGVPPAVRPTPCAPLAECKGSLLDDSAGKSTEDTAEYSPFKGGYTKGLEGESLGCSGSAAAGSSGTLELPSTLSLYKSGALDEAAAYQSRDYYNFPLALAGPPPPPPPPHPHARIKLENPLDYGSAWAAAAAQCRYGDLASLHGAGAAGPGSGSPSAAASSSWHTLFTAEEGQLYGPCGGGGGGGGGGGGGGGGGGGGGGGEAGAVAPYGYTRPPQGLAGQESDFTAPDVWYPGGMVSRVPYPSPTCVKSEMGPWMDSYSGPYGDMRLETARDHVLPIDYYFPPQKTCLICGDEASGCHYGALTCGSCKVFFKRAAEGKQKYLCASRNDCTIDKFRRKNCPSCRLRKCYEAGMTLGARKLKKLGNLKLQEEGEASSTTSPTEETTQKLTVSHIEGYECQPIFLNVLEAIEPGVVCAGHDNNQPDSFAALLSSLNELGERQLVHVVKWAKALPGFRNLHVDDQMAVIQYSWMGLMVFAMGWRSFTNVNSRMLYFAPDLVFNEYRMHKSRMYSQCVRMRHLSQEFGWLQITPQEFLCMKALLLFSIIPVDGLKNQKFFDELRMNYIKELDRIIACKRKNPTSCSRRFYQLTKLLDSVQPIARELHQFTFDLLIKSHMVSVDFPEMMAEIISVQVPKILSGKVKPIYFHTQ
Sequence of UniProt Q03405 (whole entry, looked up): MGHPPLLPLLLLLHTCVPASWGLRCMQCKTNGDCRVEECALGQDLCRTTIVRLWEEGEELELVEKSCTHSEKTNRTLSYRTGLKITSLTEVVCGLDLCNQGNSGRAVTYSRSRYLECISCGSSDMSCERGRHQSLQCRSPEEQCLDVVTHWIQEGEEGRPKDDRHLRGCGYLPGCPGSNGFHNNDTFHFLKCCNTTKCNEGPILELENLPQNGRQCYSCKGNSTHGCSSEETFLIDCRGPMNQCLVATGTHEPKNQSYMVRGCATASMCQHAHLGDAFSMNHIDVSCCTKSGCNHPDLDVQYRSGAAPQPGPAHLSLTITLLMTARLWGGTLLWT
Sequence of UniProt P17931 (whole entry, unmodified, looked up): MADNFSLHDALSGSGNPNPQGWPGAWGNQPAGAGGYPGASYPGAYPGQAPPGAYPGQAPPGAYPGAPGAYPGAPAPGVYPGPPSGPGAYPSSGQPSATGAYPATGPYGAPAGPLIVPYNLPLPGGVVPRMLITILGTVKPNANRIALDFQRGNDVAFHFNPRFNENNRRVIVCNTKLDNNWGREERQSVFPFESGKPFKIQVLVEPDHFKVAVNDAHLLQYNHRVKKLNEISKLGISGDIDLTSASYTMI
Sequence of UniProt P09619 (whole entry, unmodified, looked up): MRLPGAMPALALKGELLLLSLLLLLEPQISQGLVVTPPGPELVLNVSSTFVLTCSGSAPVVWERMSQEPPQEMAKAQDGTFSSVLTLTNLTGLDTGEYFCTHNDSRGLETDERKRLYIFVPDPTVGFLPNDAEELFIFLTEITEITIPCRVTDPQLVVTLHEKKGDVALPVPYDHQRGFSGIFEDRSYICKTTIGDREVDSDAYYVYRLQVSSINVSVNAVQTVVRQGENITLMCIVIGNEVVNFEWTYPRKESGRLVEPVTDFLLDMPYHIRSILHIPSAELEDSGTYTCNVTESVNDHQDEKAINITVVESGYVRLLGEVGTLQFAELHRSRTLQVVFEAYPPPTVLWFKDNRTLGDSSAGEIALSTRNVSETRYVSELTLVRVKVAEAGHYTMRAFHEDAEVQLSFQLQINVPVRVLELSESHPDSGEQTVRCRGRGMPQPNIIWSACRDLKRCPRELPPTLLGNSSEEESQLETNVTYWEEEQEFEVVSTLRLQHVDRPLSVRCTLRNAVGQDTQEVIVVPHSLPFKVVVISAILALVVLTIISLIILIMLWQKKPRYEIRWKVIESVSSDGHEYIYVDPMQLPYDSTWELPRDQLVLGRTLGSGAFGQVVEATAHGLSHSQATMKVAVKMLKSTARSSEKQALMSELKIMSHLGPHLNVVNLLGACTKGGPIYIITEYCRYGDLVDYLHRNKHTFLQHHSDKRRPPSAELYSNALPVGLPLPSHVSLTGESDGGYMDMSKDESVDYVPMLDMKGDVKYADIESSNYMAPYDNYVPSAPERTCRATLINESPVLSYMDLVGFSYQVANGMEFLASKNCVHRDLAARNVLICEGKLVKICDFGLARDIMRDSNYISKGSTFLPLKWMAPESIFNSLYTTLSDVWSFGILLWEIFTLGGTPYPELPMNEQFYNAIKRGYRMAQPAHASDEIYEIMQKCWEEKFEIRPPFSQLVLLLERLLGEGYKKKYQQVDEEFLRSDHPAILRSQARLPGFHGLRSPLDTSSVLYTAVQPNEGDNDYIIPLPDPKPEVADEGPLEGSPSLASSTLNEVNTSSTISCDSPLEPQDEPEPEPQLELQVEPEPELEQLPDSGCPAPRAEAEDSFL
Sequence of UniProt Q9HAW8 (whole entry, looked up): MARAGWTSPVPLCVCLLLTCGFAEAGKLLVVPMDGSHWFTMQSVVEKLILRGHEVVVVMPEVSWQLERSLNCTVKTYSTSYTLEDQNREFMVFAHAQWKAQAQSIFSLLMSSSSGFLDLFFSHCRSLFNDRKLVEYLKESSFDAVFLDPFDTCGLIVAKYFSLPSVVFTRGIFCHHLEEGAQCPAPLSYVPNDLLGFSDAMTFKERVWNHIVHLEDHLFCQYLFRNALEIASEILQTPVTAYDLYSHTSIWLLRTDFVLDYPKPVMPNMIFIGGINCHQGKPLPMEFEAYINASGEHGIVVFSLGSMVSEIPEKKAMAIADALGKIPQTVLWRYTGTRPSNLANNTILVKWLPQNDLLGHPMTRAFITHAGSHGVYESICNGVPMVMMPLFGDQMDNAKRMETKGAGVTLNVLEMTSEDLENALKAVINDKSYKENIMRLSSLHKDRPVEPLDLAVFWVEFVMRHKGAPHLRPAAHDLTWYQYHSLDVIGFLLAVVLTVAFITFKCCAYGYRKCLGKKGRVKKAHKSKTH
Sequence of UniProt Q8BH82 (whole entry, looked up): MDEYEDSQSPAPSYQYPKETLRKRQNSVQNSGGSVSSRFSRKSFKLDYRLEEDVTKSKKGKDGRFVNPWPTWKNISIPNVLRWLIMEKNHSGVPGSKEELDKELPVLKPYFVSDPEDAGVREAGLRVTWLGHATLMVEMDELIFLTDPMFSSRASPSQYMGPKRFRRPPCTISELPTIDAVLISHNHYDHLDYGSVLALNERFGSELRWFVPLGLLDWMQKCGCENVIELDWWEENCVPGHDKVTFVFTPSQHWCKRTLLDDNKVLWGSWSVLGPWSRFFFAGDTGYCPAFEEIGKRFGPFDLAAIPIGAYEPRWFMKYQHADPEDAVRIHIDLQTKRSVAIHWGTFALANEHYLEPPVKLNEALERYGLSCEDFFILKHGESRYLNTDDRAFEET
Sequence of UniProt Q9NNX6 (whole entry, looked up): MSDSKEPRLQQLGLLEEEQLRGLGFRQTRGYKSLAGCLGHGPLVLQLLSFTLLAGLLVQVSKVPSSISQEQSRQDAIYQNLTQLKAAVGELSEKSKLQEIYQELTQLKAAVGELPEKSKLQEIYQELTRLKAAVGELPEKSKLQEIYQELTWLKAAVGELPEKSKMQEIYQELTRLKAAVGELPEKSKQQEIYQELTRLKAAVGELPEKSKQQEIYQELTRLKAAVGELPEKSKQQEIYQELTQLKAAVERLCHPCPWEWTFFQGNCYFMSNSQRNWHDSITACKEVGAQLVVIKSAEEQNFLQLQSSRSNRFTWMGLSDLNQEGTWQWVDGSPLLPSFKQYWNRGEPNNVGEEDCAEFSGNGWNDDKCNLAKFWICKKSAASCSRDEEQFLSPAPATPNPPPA

SMILES	target	assay	test system	conditions	scale	endpoint	result
CC(Oc1cc(-c2ccccc2)nc2ccncc12)C(=O)N(C)c1ccccc1 (stereo not drawn)	Tspo (Rattus norvegicus, UniProt P16257)	binding	rat brain homogenate	pKi minus clogD		lipophilic efficiency	5 ± 0.1
CCc1nc2cc3ccccc3cc2cc1C(=O)N[C@@H](CCCCN)C(=O)N[C@@H](C/C=C\C[C@H](NC(=O)[C@H](CCCCN)NC(=O)c1cc2cc3ccccc3cc2nc1CC)C(=O)N1CCC[C@H]1C(=O)NCCCN)C(=O)N1CCC[C@H]1C(=O)NCCCN	(CUG)10 RNA	SPR				residence time	230 s
C=CC[C@H]1OC(=O)CCNC(=O)[C@H](C)N(C)C(=O)[C@H]([C@@H](C)CC)N(C)C(=O)[C@H]([C@@H](C)CC)NC(=O)[C@@H]2[C@@H](C)CCN2C1=O	Platelet-derived growth factor receptor beta, extracellular domain (PDGFRB, Homo sapiens, UniProt P09619)	binding, surface plasmon resonance	PDGFR-β extracellular domain	25 °C		ΔCp	~1.04 kcal/(K·mol)
O=C(Nc1nc2ccccc2s1)C1CCN(S(=O)(=O)c2ccc(F)c(Cl)c2)CC1	Napepld (Mus musculus, UniProt Q8BH82)	LC-MS/MS		10 or 20 µM, 90 min, with: NOPE substrate		OEA/NOPE ratio	no effect
CC(C)C[C@H](NC(=O)[C@H](Cc1ccc(O)cc1)NC(=O)[C@@H](CCCNC(=N)N)NC(=O)[C@@H](CO)NC(=O)[C@H](Cc1ccccc1)NC(=O)[C@H](CC1CCCCC1)NC(=O)[C@H](CC(=O)O)NC(=O)CN1CCN(CC(=O)O)CCN(CC(=O)O)CCN(CC(=O)O)CC1)C(=O)N[C@@H](Cc1c[nH]c2ccccc12)C(=O)N[C@@H](CO)C(N)=O	Urokinase plasminogen activator surface receptor (Homo sapiens, UniProt Q03405)	binding, SPR				kon	460000 M⁻¹ s⁻¹
O=C(O)[C@H]1O[C@@H](O[C@H]2C=Cc3c(cc4ccc5cccc6c7ccccc7c3c4c56)[C@@H]2O)[C@H](O)[C@@H](O)[C@@H]1O	UGT1A10 (Homo sapiens, UniProt Q9HAW8)	glucuronidation, substrate	UGT-expressing HEK293 homogenate	normalized to UGT expression		kcat/Km	43.3 ± 8.33 M⁻¹ s⁻¹
C[n+]1cn(C2OC(COP(=O)(O)OP(=O)([O-])OP(=O)(O)OCC3OC(n4cnc5c(=O)[nH]c(N)nc54)C(O)C3O)C(O)C2O)c2nc(NCc3ccc(Cl)cc3)[nH]c(=O)c21 (stereo not drawn)	DNA-directed RNA polymerase (Enterobacteria phage SP6, UniProt P06221)	in vitro transcription, densitometry	short RNA			capping efficiency	88.2% and ~90%
COc1cccc(C(=O)N[C@H]2[C@@H](O)[C@@H](CO)O[C@@H](S[C@@H]3O[C@H](CO)[C@H](O)[C@H](NC(=O)c4cccc(OC)c4)[C@H]3OS(=O)(=O)O)[C@@H]2O)c1	Galectin-3 (LGALS3, Homo sapiens, UniProt P17931)	ITC		pH 7.2, 4% DMSO		ΔG	-9.536 ± 0.0239 kcal/mol
O=C(O)[C@H]1O[C@@H](O[C@H]2[C@H](O)[C@H](O)[C@H](O[C@H]3[C@H](O)[C@H](O)[C@H](O)O[C@@H]3C(=O)O)O[C@H]2C(=O)O)[C@@H](O)[C@@H](O)[C@@H]1O[C@@H]1O[C@@H](C(=O)O)[C@@H](O)[C@H](O)[C@@H]1O	Beta-lactoglobulin (LGB, Bos taurus, UniProt P02754, A134V/G80D)	isothermal titration calorimetry		concentration not given, pH 4.00, 37 °C, 50 mM KH2PO4	ligand per protein	binding stoichiometry	4
O=C(Nc1ccc(C(F)(F)F)cc1Cl)c1cc(Cl)ccc1O	Androgen receptor, AR-V7 isoform (AR, Homo sapiens, UniProt P10275)	Western blot	CWR22Rv1	1 µM, 16 h		AR variant protein level	inhibited
O=Cc1ccc2cccc(O)c2n1	CD209 antigen (CD209, Homo sapiens, UniProt Q9NNX6)	binding, plate-based HRP		0.5 mM, immobilized protein	baseline: DMSO	activation	≥ 50%
[3H]C([3H])([3H])c1cnccc1CN1C[C@@H](c2cc(F)c(F)c(F)c2)CC1=O	SV2A (Homo sapiens, UniProt Q7L0J3)	radioligand binding, saturation binding	human control, pooled frontal cortex homogenate			Bmax	0.16 pmol/mg

For quick reference, copied from above:
SMILES	target	assay	test system	conditions	scale	endpoint	result
CCc1nc2cc3ccccc3cc2cc1C(=O)N[C@@H](CCCCN)C(=O)N[C@@H](C/C=C\C[C@H](NC(=O)[C@H](CCCCN)NC(=O)c1cc2cc3ccccc3cc2nc1CC)C(=O)N1CCC[C@H]1C(=O)NCCCN)C(=O)N1CCC[C@H]1C(=O)NCCCN	(CUG)10 RNA	SPR				residence time	230 s
